{"data": "Measured values of several laboratories", "note": "Numbered parts are unrelated; each lists some results of a single study. Substitutions count along the parent as printed."}
{"data": "Study 1", "target": "CCNA1, cyclin fold, Cln2 fusion (human)", "technique": "yeast growth competition, sequencing", "medium": "yeast", "notes": "weak parent motif", "relative to": "not given", "reading": "higher = stronger binding", "starting sequence": "WEE1 docking peptide (human); HKTFRKLRLFDTP"}
{"Substitution": "T12R", "normalised enrichment score": 0.338}
{"Substitution": "T3C", "normalised enrichment score": -0.202}
{"Substitution": "T3Y", "normalised enrichment score": -0.5}
{"Substitution": "H1M", "normalised enrichment score": 0.204}
{"Substitution": "D11L", "normalised enrichment score": 0.228}
{"Substitution": "F4Q", "normalised enrichment score": 0.578}
{"Substitution": "R5L", "normalised enrichment score": 0.332}
{"Substitution": "K6N", "normalised enrichment score": 0.316}
{"data": "Study 2", "target": "ABI1, truncated, D143A, DHFR fusion (Arabidopsis thaliana)", "technique": "DHFR PCA, deep sequencing", "medium": "yeast", "notes": "methotrexate growth selection, single substitutions", "together with": "(+)-ABA 2500 µM", "relative to": "wild-type fitted maximum", "reading": "higher = stronger binding", "starting sequence": "PYL1, truncated, DHFR fusion (Arabidopsis thaliana); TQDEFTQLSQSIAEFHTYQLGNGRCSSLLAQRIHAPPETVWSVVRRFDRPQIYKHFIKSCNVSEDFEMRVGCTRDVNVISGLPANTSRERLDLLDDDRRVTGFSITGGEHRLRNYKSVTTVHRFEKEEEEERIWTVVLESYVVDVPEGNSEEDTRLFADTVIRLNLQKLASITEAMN"}
{"Substitution": "E151K", "relative binding score": "93.4%"}
{"Substitution": "S80P", "relative binding score": "63.9%"}
{"Substitution": "W134E", "relative binding score": "114%"}
{"Substitution": "K168N", "relative binding score": "99%"}
{"data": "Study 3", "target": "Fragile X messenger ribonucleoprotein 1, C-terminal low-complexity region (Fmr1, Mus musculus, UniProt P35922)", "technique": "RNA Bind-n-Seq", "molecule type": "RNA", "medium": "in vitro", "concentration": "200 nM", "notes": "whole 134-nt RNA, ends assumed", "together with": "150 mM LiCl", "relative to": "input library", "reading": "higher = stronger binding", "all molecules": "7-deaza-guanosine replaces G", "shared flanks, not repeated": "GGGAGUUCUACAGUCCGACGAUC … UGGAAUUCUCGGGUGUCAAGG"}
{"Strand": "AAGUCCUGUGCUACACAUCGUAUGUACCGAAUCGGGGUUUGGGGUUUGGGGUUUGGGAAAGUAUUAUGUUACGCCGUUCGGAUCUGCACU", "log2 enrichment": -1.39}
{"Strand": "AAGUCCUGUGCUACACAUCGUAUGUACCGAAUCGGGAAAGGGUGGGAAAAAAAGGGAAAGUAUUAUGUUACGCCGUUCGGAUCUGCACUU", "log2 enrichment": -1.07}
{"Strand": "GUCCUGUGCUACACAUCGUAUGUACCGAAUCGUGUGUGUGUGUGUGUGUGUGUGUGUGAAAGUAUUAUGUUACGCCGUUCGGAUCUGCAC", "log2 enrichment": -0.228}
{"Strand": "ACCAUGCAGGUGGGCAUCUUUGGGAAGUGGGGCAAGGGGGGGAUAGGGAGGGGGGUAACACUUUGGGAACAGGUGGUCCCAGGUCGGUUC", "log2 enrichment": 1.49}
{"Strand": "CCUCAAGUCCUGUGCUACACAUCGUAUGUACCGAAUCGGUUUGGUGGUUUGGAAAGUAUUAUGUUACGCCGUUCGGAUCUGCACUUCCAG", "log2 enrichment": -1.23}
{"Strand": "GACUCUGAAGAAGAAGCUAUGGAGACUACACCAGCCAAAGGAAAGAAAGCUGCAAAAGUUGUUCCUGUGAAAGCCAAGAACGUGGCUGAG", "log2 enrichment": -1.47}
{"Strand": "UGGGGAGACUACGAUGACAGCGCCUUCAUGGAGCCCAGGUACCACGUCCGUGGAGAAGAUCUGGACAAGCUCCACAGAGCUGCCUGGUGG", "log2 enrichment": -2.59}
{"Strand": "UCCCUGAAUCACCGACUGGAGGAGAGUUACCUACAAGAGCCUUCAUCCAGGAGCAUCCACACUGCAAUGAUAUAGGAAUGAGGUCUGAAC", "log2 enrichment": -0.534}
{"data": "Mixed results"}
{"Molecule": "PhoQ, residues 284 288 289 292 302 303 SLCLSL", "target": "PhoP, residues 12 14 15 18 19 YHFSH (Escherichia coli, UniProt P23836)", "test": "Sort-seq, item: YFP reporter", "test system": "E. coli", "conditions": "PhoQ-PhoP variant library, together with: 10 µM Mg2+", "scale": "relative to: high Mg2+ state, higher = stronger signaling", "quantity": "fold induction", "result": 2.07}
{"note": "Repeated from above (study 2):"}
{"Substitution": "E151K", "relative binding score": "93.4%"}
{"Substitution": "K168N", "relative binding score": "99%"}
